Results collected from several papers.
Numbered parts are unrelated; each lists some results of a single study. Substitutions count along the parent as printed.

Sample 1
Target: Histone acetyltransferase KAT6A, winged helix 1, GST fusion (KAT6A, Homo sapiens, UniProt Q92794, residues 1-85)
Technique: protein binding microarray
Molecule type: double-stranded DNA, one strand shown
Matrix: in vitro
Tested at: not given
Notes: 8-mer, flanks averaged, mean of 2 arrays, mostly near background
Baseline: not given
Reading: higher = stronger binding
Construct (chain): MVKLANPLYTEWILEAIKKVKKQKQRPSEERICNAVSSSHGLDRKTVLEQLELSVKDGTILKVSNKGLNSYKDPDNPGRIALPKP
For `AACATCCA`, the E-score was -0.186.
The E-score of `AATCCGCG` is reported as 0.304.
For `CACATTTC`, the E-score was -0.103.
With `ACATATAG` the E-score was -0.0414.
The E-score of `CCTCATCG` is reported as -0.0786.
With `CTTTCAAC` the E-score was -0.0798.
The E-score of `TGCTAGCA` is reported as 0.0481.
`GTGTCTCA` gave an E-score of -0.138.
The E-score of `CACGGCTG` is reported as 0.278.
`ACAGAATA` has an E-score of -0.179.
For `ACACCGAG`, the E-score was 0.0806.
`TACCTCTA` gave an E-score of -0.176.
For `CTTAACGA`, the E-score was -0.0939.
`TCAAGTGA` has an E-score of -0.246.

Sample 2
Target: ABI1, truncated, D143A, DHFR fusion (Arabidopsis thaliana)
Technique: DHFR PCA, deep sequencing
Matrix: yeast
Notes: methotrexate growth selection, single substitutions
Added: (+)-ABA 2500 µM
Baseline: wild-type fitted maximum
Reading: higher = stronger binding
Parent: PYL1, truncated, DHFR fusion (Arabidopsis thaliana); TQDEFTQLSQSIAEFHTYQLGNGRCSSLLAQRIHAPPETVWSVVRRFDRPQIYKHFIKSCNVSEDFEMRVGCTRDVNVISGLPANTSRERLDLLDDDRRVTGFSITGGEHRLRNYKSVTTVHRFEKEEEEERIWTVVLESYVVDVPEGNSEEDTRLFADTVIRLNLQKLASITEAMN
`L82Y`: “relative binding score” 67.7%.
`S171E`: “relative binding score” 100%.
`V43N`: “relative binding score” 92.8%.
For `W41H`, “relative binding score” read 38.3%.
Under “relative binding score”, `D97I` is recorded as 108%.
For `C25G`, “relative binding score” read 81.9%.
`I162G` — result for “relative binding score”: 53.8%.
Under “relative binding score”, `I172N` is recorded as 81.2%.

Sample 3
Substance: PhoQ, residues 284 288 289 292 302 303 SNGLAW
Technique: Sort-seq
Refers to: YFP reporter
Matrix: E. coli
Notes: PhoQ-PhoP variant library
Added: 10 µM Mg2+
Baseline: high Mg2+ state
Reading: higher = stronger signaling
The fold induction was 4.24 (PhoP, residues 12 14 15 18 19 TQCLL (Escherichia coli, UniProt P23836)).
The fold induction was 15.8 (PhoP, residues 12 14 15 18 19 ICWRQ (Escherichia coli, UniProt P23836)).
It gave 5.1 for fold induction (PhoP, residues 12 14 15 18 19 VHTVL (Escherichia coli, UniProt P23836)).

Sample 4
Target: CCND1, cyclin fold, Cln2 fusion (human)
Technique: yeast growth competition, sequencing
Matrix: yeast
Notes: weak parent motif
Baseline: not given
Reading: higher = stronger binding
Parent: RB1 docking peptide (human); PKPLKKLRFDIEG
For `PKKLKKLRFDIEG [P3K]`, “normalised enrichment score” read -0.186.
For `PKVLKKLRFDIEG [P3V]`, “normalised enrichment score” read -0.612.
Under “normalised enrichment score”, `PKPLKVLRFDIEG [K6V]` is recorded as 0.53.
`PKPLNKLRFDIEG [K5N]`: “normalised enrichment score” 0.187.
Under “normalised enrichment score”, `PKPLKKLRFDGEG [I11G]` is recorded as -0.458.
`PRPLKKLRFDIEG [K2R]` — result for “normalised enrichment score”: 0.243.
`PKPLKKLRFDIEN [G13N]` — result for “normalised enrichment score”: 0.208.
`PKPLKKLRFDING [E12N]` — result for “normalised enrichment score”: -0.0643.
For `EKPLKKLRFDIEG [P1E]`, “normalised enrichment score” read 0.0645.
Under “normalised enrichment score”, `PKPLKKLRFSIEG [D10S]` is recorded as -0.672.

A few entries again (sample 2):
For `C25G`, “relative binding score” read 81.9%.
`L82Y`: “relative binding score” 67.7%.
